Published values gathered from unrelated publications.
Protocols differ between the studies behind these lines. ± marks the error that the study gave.
ALB: Albumin (ALB, Bos taurus, UniProt P02769)
RMS3: RMS3 (Lathyrus oleraceus, UniProt A0A109QYD3)
gdpP residues 84-659: gdpP, residues 84-659 (Bacillus subtilis, UniProt P37484)

CC(=O)NC(Cc1ccc(Br)c(Cl)c1)C(=O)N[C@@H](C)C(=O)N1CCC[C@H]1C(=O)N1CCC[C@H]1C(=O)N[C@@H](CCC(=O)O)C(=O)N[C@@H](Cc1c[nH]cn1)C(=O)N[C@@H](CO)C(=O)N[C@H](C(=O)N[C@@H](C)C(N)=O)[C@@H](C)OP(=O)(O)O (some centres unmarked) — inhibition (Epidermal growth factor receptor (EGFR, Homo sapiens, UniProt P00533); cell-free assay, inhibitor; 10 µM): 0.14%
Cc1ccc2c(n1)c(-c1cccc(S(C)(=O)=O)c1)c(C)n2C/C(F)=C/CN — peak inhibition (Lysyl oxidase homolog 2 (LOXL2, Homo sapiens, UniProt Q9Y4K0); inhibitor, activity-based probe; healthy human subjects; oral, 100 mg single dose, 2 h, single ascending dose): > 85%
NC(=NN=Cc1cccs1)[S][Ru+]([Cl])([P](c1ccccc1)(c1ccccc1)c1ccccc1)[P](c1ccccc1)(c1ccccc1)c1ccccc1.[Cl-] — Stern-Volmer constant (ALB; fluorescence quenching; together with: ibuprofen, site II marker): 1140 M⁻¹
CC[C@H](C)[C@H](NC(=O)[C@H](Cc1ccccc1)NC(=O)[C@@H]1CCCN1C(=O)[C@H](CCCCN)NC(=O)[C@H](CCCCN)NC(=O)[C@H](Cc1ccccc1)NC(=O)[C@H](Cc1ccccc1)NC(=O)[C@@H](C)NC(=O)[C@@H](N)Cc1ccc(O)cc1)C(=O)N[C@@H](CC(C)C)C(=O)O — Emax (Neurotensin receptor type 1 (Ntsr1, Rattus norvegicus, UniProt P20789); GTPγS binding, agonist, radiometric; cell membranes): 104%
O=C(NC1CCSC1=O)C1CCC1 (centres unmarked) — maximum activation (HTH-type quorum-sensing regulator RhlR (rhlR, Pseudomonas aeruginosa, UniProt P54292); reporter gene, agonist, rhlI-lacZ reporter; Escherichia coli): 110%
CC1=C(C)C(Oc2c(F)cc3c(C)cc(=O)oc3c2F)OC1=O (racemic) — kcat/K1/2 (RMS3; enzyme activity, substrate, DiFMU release; pre-steady state): 400 M⁻¹ s⁻¹
CC(C)OC(=O)[C@H](C)NP(=S)(Oc1ccccc1)c1ccccc1 (some centres unmarked) — maximum DNS-NH2 concentration (Carboxypeptidase Y (Saccharomyces cerevisiae, UniProt P00729); substrate, LC-MS/MS; 5 µM, together with: carboxypeptidase Y 60 ng/mL): 1.84 µmol/L
C=Cc1cc(OC)c2c(c1)c(=O)oc1c2cc(OC)c2c(O)ccc([C@@H]3O[C@H](C)[C@H](O)[C@@](C)(O)[C@H]3O)c21 — Kd fold increase (Bifunctional protein GlmU (Staphylococcus aureus, UniProt Q5HIH6, G277S); binding, microscale thermophoresis; baseline: G277S mutant over wild type): 10.4 fold
CN1/C(=C/C=C/C=C/C2=[N+](CCCCCC(=O)NCCCCCCCCN3[C@H]4[C@H](O)[C@@H](O)[C@H](O[C@@H]5OC[C@@H](O)[C@H](O)[C@H]5O)C[C@H]43)c3ccccc3C2(C)C)C(C)(C)c2ccccc21 (some centres unmarked) — optimal labelling pH (Exo-1,4-beta-xylosidase xlnD (Aspergillus niger, UniProt O00089); activity-based probe labelling; Aspergillus niger, secretome): ~4.5
CCOc1cccc2c1[O][Pt-2]1([Cl])[N+](=C2)Cc2cccc[n+]21 (centres unmarked) — binding free energy (ALB; binding to BSA): -42 kJ/mol
O=C(Nc1cccc(-c2nn[nH]n2)c1)c1cc(-c2cccs2)cc(C(F)(F)F)c1 — Kd/Ki difference (CTX-M-27 beta-lactamase; surface plasmon resonance): 2 to 3 fold
CCCCCn1cc(C(=O)c2ccc3ccccc3c2)c2ccccc21 — Emax (Cannabinoid receptor 1 (CNR1, Homo sapiens, UniProt P21554, L193I); Gαi1 engagement, agonist, BRET; baseline: reference agonist at wild-type CB1): 106 ± 2.8%
C#CC[C@H](NC(=O)CNC(=O)[C@H](CO)NC(=O)[C@@H]1CCCCNC(=O)CCCC(=O)N[C@@H](CCSC)C(=O)N[C@@H](Cc2c[nH]c3ccccc23)C(=O)N2CCC[C@H]2C(=O)N[C@@H](Cc2c[nH]cn2)C(=O)N[C@@H](CCCNC(=N)N)C(=O)N[C@@H](C(C)C)C(=O)N[C@@H]([C@@H](C)O)C(=O)N[C@@H](C)C(=O)N(C)[C@@H](C)C(=O)N1)C(=O)O — binding energy from cyclization (Microtubule-associated protein 1 light chain 3 alpha (Homo sapiens, UniProt Q9H492); fluorescence polarization; baseline: cyclic over linear): ~2.93 kJ/mol
O=C1SCCC1NC(C(=O)NCc1ccccc1)C1CC1 (centres unmarked) — Km (Thiosulfate sulfurtransferase (TST, Homo sapiens, UniProt Q16762); activator, measured: sodium thiosulfate; 34.2 µM, together with: KCN 60 mM): 43.9 ± 3.6 mM
Cc1cc(S(=O)(=O)Nc2ncccn2)c(F)cc1N(C)C1CCN([C@H](C)c2ccccc2)CC1 — IC50 ratio (Sodium channel protein type 8 subunit alpha (SCN8A, Homo sapiens, UniProt Q9UQD0); ion current, inhibitor, automated patch clamp; baseline: resting (-120 mV) over inactivated state): > 1000 fold
CC(C)P(=[Se])(NP(=[Se])(C(C)C)C(C)C)C(C)C — ΔH (Alpha-amylase (Bacillus subtilis, UniProt P00691); binding, Van't Hoff analysis; pH 6.8, 298–310 K): 231 kJ/mol
O=C(Nc1cccc(-c2nn[nH]n2)c1)c1cc(-c2nn[nH]n2)cc(C(F)(F)F)c1 — Kd/Ki difference (CTX-M-27 beta-lactamase; surface plasmon resonance): > 3 fold
COCCCN1CCc2c(Cc3ccc(Cl)cc3)[nH]c3c(OC(F)F)ccc(c23)C1=O — selectivity ratio (Dual 3',5'-cyclic-AMP and -GMP phosphodiesterase 11A (PDE11A, Homo sapiens, UniProt Q9HCR9); enzyme activity; baseline: IC50 PDE5A1 over PDE11A): 100
CCN(Cc1ccccc1)C(=O)CCc1nc(CN2CCN(C(=O)Cc3ccc(OC)c(OC)c3)CC2)no1 — activation V1/2 (Potassium voltage-gated channel subfamily KQT member 2 (KCNQ2, Homo sapiens, UniProt O43526); potassium current, whole-cell patch clamp; CHO, stable; 10 µM): -50.4 mV
CS(=O)(=O)NC(=O)c1ccc(NC(=O)c2cccc(CC3CCCCC3)n2)c(Cc2ccccc2)c1 — IC50 ratio (Capsid scaffolding protein, protease domain (Human herpesvirus 8 type P, UniProt Q2HRB6, R82Q); enzyme activity, inhibitor; pH 8; baseline: mutant over wild type): 3 to 4 fold
Oc1ccc(O)c2ccccc12 — MBP phosphorylation (Serine/threonine-protein kinase PAK 1 (PAK1, Homo sapiens, UniProt Q13153, T423E); inhibitor; 40 µM, 0.5 h): decreased
Nc1nc(N)c2ncn([C@@H]3O[C@@H]4COP(=O)(O)O[C@H]5[C@@H](O)[C@H](n6cnc7c(N)nc(N)nc76)O[C@@H]5COP(=O)(O)O[C@H]4[C@H]3O)c2n1 — hydrolysis rate fold decrease (gdpP residues 84-659; HPLC; concentration not given; baseline: c-di-AMP, higher = slower hydrolysis): ≥ 4100
CC[C@H](C)[C@H](N)C(=O)N[C@@H](CC(N)=O)C(=O)N[C@@H](CCCCN)C(=O)N[C@@H](CCC(N)=O)C(=O)NCC(=O)N[C@@H](CC(=O)O)C(=O)N[C@H](C(=O)N[C@H](C(=O)N[C@H](C(=O)N[C@@H](CC(C)C)C(=O)N[C@@H](CO)C(=O)N[C@@H](CC(N)=O)C(=O)NCC(=O)N[C@@H](CC(N)=O)C(=O)N[C@H](C(=O)N[C@@H](CCC(N)=O)C(=O)N[C@@H](CC(C)C)C(=O)N[C@H](C(N)=O)[C@@H](C)O)[C@@H](C)O)C(C)C)[C@@H](C)O)C(C)C — binding ratio (PPG and sAP, Leishmania; surface plasmon resonance; baseline: PPG over sAP): 9 fold
O=C(Oc1cccc2c1C(=O)C=CC2=O)c1ccccc1 — IC50 ratio (Serine hydrolase RBBP9 (Rbbp9, Mus musculus, UniProt O88851); inhibitor, gel-based competitive ABPP; baseline: mouse over human RBBP9): ~50 fold
CCCN1CCc2cc(O)cc3c2[C@H]1Cc1ccc(O)c(O)c1-3 — maximal inhibition (Carbamate kinase (Giardia intestinalis, UniProt A8BB85); enzyme activity, inhibitor, luminescence, ATP detection; Giardia lamblia): 86.8%
CC(C)[C@H](NC(=O)[C@@H](N)CO)C(=O)N[C@@H](Cc1ccc(O)cc1)C(=O)N[C@@H](CCC(=O)O)C(=O)N[C@@H](CO)C(=O)N1CCC[C@H]1C(=O)N[C@@H](Cc1ccc(OP(=O)(O)O)cc1)C(=O)N[C@@H](CO)C(=O)N[C@@H](CC(=O)O)C(=O)N1CCC[C@H]1C(=O)N[C@@H](CCC(=O)O)C(=O)N[C@@H](CCC(=O)O)C(=O)O — Km (Ecdysteroid-phosphate phosphatase, PGM domain (EPP, Bombyx mori, UniProt Q7YTB0); pH 7.5): 3.6 mM
CC(=O)N[C@@H](Cc1c[nH]c2ccccc12)C(=O)N[C@@H](CCC(=O)O)C(=O)N[C@@H](Cc1c[nH]cn1)C(=O)N[C@@H](CC(=O)O)C(=O)Nc1ccc2c(C)cc(=O)oc2c1 — Vmax (Caspase-4 (CASP4, Homo sapiens, UniProt P49662); substrate cleavage, substrate, fluorogenic AMC release; enzyme 0.25 activity units/µL): 6570 ± 588 RFU/min
CCCn1c(SCC(=O)N2CCc3cc(CC)ccc32)nnc1-c1cccnc1 — efficacy (Orco (Drosophila melanogaster, UniProt Q9VNB5); calcium mobilization, agonist; HEK293 expressing Orco; baseline: VUAA1 maximum): 99%
CC1=CC(Oc2c(F)cc3c(C)cc(=O)oc3c2F)OC1=O (racemic) — K1/2 (RMS3; enzyme activity, substrate, DiFMU release; pre-steady state): 3.83 ± 1.8 µM
CCOC(=O)/C=C/[C@H](C[C@@H]1CCNC1=O)NC(=O)[C@H](Cc1ccccc1)NC(=O)[C@H](COC(C)(C)C)NC(=O)OCc1ccccc1 — FLuc reporter expression (Genome polyprotein, 3C protease (Saffold virus, UniProt C0MHL9); protease activity, cell-based reporter): no effect
Nc1nc(N)c2ncn([C@@H]3O[C@@H]4COP(=O)(O)O[C@H]5[C@@H](O)[C@H](n6cnc7c(N)ncnc76)O[C@@H]5COP(=O)(O)O[C@H]4[C@H]3O)c2n1 — degradation rate (gdpP residues 84-659; substrate, HPLC; 100 µM, 37 °C, upper limit if undegraded 24 h, together with: enzyme 1 µM): 1.8 ± 0.3 mol/min/mol enzyme
Nc1nc2ncc(CNc3ccc(C(=O)N[C@@H](CCC(=O)NCCOCCOCCNC(=O)CN4CCN5CCN(CC4)CC(=O)[O][Al]([18F])[O]C(=O)C5)C(=O)O)cc3)nc2c(=O)[nH]1 — Bmax (Folate receptor alpha (FOLR1, Homo sapiens, UniProt P15328); radioligand saturation binding; KB xenograft homogenate): 511 nM
O=C(O)COc1ccc(Cl)cc1 — free energy lowering of closed state (Chloride channel protein (Torpedo marmorata, UniProt P21564, C212S); chloride channel gating, inhibitor, kinetic model fit; baseline: drug-free channel): ~7.3 kJ/mol
O=C(CCCC[C@@H]1SC[C@@H]2NC(=O)N[C@@H]21)NCCCCCCCCN1[C@H]2[C@H](O)[C@@H](O)[C@H](O[C@@H]3OC[C@@H](O)[C@H](O)[C@H]3O)C[C@H]21 (some centres unmarked) — kinact/Ki (Exo-1,4-beta-xylosidase xlnD (xlnD, Emericella nidulans, UniProt Q5BAS1); covalent inhibitor; Aspergillus nidulans; pH 4.5): 3.33 M⁻¹ s⁻¹
O=C(O)c1cccc(Nc2nc(-c3ccc(Cl)c(Cl)c3)cs2)c1 — Vmax (Capsid scaffolding protein, protease domain (Human herpesvirus 8 type P, UniProt Q2HRB6); inhibitor): decreased
